Results from different studies.
Each numbered part is a random draw from the data of one study; scales do not carry over between parts.
Chain of UniProt Q6XUX3 (whole entry, looked up): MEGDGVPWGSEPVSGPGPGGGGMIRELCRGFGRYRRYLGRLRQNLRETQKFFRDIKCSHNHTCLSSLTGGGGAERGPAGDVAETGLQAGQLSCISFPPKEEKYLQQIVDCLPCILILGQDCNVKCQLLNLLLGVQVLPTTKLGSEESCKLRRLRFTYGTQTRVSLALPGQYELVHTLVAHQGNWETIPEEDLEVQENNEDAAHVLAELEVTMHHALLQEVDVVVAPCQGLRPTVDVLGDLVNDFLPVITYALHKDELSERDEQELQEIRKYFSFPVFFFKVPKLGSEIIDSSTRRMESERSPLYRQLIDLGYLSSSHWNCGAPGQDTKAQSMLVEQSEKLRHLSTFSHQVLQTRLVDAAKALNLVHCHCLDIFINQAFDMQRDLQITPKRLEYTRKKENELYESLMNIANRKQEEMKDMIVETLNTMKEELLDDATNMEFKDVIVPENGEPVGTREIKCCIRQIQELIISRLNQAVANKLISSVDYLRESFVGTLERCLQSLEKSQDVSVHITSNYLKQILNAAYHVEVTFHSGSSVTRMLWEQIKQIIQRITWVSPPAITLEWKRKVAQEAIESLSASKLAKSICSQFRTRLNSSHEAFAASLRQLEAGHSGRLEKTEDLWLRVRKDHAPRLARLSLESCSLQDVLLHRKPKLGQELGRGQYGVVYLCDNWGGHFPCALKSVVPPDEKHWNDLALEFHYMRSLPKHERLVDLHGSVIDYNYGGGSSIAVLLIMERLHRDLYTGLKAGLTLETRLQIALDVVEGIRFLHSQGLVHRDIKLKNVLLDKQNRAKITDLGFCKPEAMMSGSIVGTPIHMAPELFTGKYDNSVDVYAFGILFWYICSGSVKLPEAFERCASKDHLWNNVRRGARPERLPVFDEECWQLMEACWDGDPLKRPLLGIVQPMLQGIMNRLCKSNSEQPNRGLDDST

Study 1 — technique: RNAcompete; form: RNA; sample: in vitro; concentration: 20 nM; notes: 7-mer, probes averaged, single round; relative to: mean of 7-mers; reading: higher = stronger binding
Target: PABPC1L2, full length, GST fusion (mouse, UniProt A0ABA7IW68)
Construct (chain): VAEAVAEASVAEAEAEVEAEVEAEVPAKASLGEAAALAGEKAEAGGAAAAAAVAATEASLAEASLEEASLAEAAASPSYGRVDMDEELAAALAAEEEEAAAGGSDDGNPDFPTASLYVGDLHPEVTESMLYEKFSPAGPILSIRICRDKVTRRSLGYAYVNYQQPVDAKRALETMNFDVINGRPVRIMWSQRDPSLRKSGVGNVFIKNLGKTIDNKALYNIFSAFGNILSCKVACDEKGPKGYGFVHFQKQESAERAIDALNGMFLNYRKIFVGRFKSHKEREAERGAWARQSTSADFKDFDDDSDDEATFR
`CCCUUAC` gave a 7-mer Z-score of -0.356.
With `UUCAUGG` the 7-mer Z-score was -0.182.
With `GGUUUUC` the 7-mer Z-score was -0.405.
`UCCCAUA` has a 7-mer Z-score of -0.246.
The 7-mer Z-score of `CUGGUAA` is reported as 0.0243.
`UUACAUA` gave a 7-mer Z-score of -0.151.
The 7-mer Z-score of `AUGCGCG` is reported as -0.0264.
With `CCUAUCC` the 7-mer Z-score was -0.47.

Study 2 — technique: universal PBM; form: double-stranded DNA, one strand shown; sample: in vitro; concentration: 600 nM; reading: higher = stronger binding
Target: Sal-like protein 4, full length isoform A (SALL4, Homo sapiens, UniProt Q9UJQ4, residues 1-1053)
Chain of UniProt Q9UJQ4 (whole entry, looked up): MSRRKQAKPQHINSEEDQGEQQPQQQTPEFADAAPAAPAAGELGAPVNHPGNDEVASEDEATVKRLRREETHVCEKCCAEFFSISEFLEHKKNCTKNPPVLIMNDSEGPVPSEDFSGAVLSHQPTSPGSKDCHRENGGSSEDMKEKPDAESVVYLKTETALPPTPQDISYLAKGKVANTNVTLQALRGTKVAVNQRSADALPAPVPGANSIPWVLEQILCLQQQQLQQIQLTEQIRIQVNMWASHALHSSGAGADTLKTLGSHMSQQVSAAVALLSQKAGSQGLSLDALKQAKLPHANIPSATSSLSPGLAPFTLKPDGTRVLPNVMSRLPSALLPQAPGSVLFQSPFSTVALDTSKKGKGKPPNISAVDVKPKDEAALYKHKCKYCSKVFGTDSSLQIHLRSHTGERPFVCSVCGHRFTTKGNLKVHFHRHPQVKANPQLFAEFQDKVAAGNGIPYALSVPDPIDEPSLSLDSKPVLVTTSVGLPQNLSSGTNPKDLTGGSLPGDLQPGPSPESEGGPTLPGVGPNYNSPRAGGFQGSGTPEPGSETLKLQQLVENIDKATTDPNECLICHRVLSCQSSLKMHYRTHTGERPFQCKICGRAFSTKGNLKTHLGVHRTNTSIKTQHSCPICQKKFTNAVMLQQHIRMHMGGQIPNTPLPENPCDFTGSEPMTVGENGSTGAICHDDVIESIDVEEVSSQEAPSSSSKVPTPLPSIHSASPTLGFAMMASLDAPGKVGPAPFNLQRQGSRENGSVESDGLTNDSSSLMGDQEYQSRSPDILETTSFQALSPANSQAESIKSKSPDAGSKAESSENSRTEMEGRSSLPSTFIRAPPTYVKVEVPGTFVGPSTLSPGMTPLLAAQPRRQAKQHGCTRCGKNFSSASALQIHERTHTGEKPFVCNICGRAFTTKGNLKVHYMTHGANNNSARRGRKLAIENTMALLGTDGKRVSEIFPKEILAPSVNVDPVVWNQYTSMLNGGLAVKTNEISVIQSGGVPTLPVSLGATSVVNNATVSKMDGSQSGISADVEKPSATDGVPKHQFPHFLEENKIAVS
Notes: 8-mer, flanks averaged, mean of replicates
`GGTCTGGA` has an E-score of -0.0789.
For `CAGGATGA`, the E-score was -0.0341.
`CGAGCCCC` has an E-score of -0.317.
The E-score of `ATCCCTAC` is reported as 0.0329.
For `AGGCGACT`, the E-score was -0.2.
The E-score of `CGCAATTC` is reported as 0.0193.
With `CATGATTC` the E-score was -0.0224.
For `TACCGCTA`, the E-score was 0.0131.

Single results of other studies
For `CCC(=O)Nc1ccc2ncnc(Nc3cccc(Br)c3)c2c1`, the remaining activity was 91.3% (Dual serine/threonine and tyrosine protein kinase (DSTYK, Homo sapiens, UniProt Q6XUX3); enzyme activity, inhibitor; 0.5 µM; relative to: control).
With `PhoQ, residues 284 288 289 292 302 303 SLKLQV` the fold induction was 8.9 (PhoP, residues 12 14 15 18 19 SMASL (Escherichia coli, UniProt P23836); Sort-seq, refers to: YFP reporter; E. coli; PhoQ-PhoP variant library, added: 10 µM Mg2+; relative to: high Mg2+ state, higher = stronger signaling).

A few entries again (study 2):
`GGTCTGGA` has an E-score of -0.0789.
